Published values pooled from the literature.
Each numbered part is a random draw from the data of one study; scales do not carry over between parts.
UniProt Q9HAZ1, sequence (whole entry, looked up): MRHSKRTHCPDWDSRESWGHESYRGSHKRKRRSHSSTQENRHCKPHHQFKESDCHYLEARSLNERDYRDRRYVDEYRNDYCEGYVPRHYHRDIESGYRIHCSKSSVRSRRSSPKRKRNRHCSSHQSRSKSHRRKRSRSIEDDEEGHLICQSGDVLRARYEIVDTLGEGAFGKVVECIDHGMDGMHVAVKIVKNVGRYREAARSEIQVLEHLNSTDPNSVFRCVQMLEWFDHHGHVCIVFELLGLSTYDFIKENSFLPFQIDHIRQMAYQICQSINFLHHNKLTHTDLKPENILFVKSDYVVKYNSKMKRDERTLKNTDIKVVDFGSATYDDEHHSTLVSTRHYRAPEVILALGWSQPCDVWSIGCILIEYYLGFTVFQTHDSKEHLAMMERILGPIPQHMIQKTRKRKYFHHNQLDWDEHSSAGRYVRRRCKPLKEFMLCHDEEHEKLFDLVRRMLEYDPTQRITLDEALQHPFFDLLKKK
UniProt P78362, sequence (whole entry, looked up): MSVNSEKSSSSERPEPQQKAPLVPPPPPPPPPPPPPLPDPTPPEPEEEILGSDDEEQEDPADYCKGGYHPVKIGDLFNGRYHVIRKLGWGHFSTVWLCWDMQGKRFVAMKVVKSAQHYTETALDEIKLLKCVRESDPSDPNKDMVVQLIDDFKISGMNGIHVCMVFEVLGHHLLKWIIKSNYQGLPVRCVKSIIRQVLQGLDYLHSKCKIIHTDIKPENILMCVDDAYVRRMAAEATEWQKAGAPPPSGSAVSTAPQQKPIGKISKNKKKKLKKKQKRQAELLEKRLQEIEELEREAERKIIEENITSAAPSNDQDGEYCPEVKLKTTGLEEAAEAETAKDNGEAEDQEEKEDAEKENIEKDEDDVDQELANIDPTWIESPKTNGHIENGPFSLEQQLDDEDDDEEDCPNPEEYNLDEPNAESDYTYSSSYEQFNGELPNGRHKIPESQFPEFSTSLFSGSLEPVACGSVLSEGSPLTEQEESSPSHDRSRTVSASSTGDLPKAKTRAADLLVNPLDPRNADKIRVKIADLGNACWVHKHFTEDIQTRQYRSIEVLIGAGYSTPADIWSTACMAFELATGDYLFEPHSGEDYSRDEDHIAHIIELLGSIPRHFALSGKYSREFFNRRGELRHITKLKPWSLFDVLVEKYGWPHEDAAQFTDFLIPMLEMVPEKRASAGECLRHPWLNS
UniProt P29322, sequence (whole entry, looked up): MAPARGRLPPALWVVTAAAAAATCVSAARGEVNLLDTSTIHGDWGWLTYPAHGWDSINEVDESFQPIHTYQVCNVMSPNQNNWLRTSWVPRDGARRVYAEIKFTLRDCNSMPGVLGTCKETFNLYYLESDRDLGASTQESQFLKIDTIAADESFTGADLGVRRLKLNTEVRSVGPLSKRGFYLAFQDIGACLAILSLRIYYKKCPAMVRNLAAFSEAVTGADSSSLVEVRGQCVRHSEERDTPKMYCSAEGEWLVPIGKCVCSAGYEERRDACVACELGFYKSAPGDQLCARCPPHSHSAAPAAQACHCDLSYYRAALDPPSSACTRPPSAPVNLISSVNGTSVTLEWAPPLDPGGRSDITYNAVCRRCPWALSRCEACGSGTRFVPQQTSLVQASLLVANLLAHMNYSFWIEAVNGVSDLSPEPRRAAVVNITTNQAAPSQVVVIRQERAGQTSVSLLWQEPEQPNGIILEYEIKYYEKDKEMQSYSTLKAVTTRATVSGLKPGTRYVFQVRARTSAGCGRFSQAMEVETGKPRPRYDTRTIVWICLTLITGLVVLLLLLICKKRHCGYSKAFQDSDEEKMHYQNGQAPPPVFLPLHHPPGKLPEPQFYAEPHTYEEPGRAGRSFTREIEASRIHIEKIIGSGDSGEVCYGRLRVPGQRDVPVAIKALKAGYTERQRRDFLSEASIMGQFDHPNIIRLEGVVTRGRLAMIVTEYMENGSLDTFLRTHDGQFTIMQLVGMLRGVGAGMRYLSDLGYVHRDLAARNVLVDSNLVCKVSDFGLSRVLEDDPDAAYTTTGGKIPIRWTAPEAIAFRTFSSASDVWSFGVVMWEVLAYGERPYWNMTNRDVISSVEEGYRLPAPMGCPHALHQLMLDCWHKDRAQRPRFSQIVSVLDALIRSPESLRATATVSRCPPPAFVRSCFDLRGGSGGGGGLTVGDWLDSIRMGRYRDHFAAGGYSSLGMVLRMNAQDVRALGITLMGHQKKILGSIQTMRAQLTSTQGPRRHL
UniProt Q9UL54, sequence (whole entry, looked up): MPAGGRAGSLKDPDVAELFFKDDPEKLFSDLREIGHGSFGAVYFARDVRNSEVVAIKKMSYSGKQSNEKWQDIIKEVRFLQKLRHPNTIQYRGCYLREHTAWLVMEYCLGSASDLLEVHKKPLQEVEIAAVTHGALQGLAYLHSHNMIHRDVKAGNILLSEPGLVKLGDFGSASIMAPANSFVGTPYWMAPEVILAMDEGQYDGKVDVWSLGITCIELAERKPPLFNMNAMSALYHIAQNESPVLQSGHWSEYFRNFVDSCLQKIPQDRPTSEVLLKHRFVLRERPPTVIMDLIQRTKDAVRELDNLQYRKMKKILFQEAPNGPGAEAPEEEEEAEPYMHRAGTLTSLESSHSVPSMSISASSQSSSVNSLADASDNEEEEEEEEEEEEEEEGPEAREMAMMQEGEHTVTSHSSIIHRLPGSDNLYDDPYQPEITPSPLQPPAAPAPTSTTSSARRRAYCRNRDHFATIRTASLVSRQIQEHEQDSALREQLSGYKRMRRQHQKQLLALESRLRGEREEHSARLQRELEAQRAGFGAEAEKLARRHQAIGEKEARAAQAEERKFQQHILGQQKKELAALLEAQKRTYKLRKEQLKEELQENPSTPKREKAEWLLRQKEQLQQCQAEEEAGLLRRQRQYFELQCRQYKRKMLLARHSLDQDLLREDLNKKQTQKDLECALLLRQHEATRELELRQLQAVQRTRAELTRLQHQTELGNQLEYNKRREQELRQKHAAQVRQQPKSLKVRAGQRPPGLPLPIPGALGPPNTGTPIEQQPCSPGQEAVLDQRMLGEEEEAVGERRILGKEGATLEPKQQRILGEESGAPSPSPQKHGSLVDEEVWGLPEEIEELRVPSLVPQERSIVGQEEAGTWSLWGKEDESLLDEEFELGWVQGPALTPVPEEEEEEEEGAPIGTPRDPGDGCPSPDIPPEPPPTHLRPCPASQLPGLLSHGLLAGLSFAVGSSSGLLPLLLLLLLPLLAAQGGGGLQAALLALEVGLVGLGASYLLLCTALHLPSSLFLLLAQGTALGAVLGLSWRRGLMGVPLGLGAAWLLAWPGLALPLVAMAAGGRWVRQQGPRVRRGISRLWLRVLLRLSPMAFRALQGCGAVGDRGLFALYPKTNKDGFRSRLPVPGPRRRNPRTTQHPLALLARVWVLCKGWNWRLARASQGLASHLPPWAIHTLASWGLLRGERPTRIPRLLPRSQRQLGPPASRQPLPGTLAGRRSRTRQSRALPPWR
UniProt Q13188, sequence (whole entry, looked up): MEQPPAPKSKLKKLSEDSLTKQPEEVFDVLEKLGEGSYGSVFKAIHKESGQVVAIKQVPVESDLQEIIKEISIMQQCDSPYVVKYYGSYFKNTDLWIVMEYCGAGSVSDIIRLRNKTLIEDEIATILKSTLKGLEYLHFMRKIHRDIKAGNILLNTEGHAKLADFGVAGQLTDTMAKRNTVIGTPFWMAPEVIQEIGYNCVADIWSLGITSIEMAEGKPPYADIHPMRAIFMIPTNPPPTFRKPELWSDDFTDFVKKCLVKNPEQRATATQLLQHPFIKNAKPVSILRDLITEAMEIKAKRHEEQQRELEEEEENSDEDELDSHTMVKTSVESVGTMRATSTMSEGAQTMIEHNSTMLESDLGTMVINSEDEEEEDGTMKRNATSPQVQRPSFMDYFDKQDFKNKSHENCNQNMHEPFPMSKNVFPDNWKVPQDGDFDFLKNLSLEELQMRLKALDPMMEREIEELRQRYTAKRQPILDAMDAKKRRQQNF
UniProt Q99558, sequence (whole entry, looked up): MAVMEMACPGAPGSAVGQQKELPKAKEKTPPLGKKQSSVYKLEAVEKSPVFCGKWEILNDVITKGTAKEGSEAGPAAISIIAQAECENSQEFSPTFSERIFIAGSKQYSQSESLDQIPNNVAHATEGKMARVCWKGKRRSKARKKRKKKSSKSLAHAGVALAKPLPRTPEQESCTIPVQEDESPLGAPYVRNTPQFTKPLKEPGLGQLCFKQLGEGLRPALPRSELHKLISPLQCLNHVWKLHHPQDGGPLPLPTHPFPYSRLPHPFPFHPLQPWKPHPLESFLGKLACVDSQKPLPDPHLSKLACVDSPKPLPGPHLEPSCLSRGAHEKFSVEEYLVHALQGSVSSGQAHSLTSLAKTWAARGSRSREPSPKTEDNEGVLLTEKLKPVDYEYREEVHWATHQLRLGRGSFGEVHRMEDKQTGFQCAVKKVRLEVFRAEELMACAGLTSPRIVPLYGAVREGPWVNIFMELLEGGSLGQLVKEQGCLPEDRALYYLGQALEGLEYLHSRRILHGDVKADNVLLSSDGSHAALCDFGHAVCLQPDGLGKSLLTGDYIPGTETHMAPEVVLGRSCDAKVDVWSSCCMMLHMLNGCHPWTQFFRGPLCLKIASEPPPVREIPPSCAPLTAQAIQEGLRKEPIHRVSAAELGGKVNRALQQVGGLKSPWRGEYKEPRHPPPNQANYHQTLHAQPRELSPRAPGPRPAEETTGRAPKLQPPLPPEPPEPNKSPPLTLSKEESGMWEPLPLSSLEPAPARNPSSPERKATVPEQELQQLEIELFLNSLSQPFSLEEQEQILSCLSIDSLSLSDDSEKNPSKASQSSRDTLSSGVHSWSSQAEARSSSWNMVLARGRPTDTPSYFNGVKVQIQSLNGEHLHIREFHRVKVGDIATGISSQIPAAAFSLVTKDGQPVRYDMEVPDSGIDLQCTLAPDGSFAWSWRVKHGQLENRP

Series 1
Compound: COc1ccc2[nH]c3c4[nH]c5ccc(OC)cc5c4c4c(c3c2c1)C(=O)NC4=O
Measurement: remaining binding
FLT3 ITD; KINOMEscan; 1000 nM; relative to: control: 2.1%
CDK19 (Homo sapiens, UniProt Q9BWU1); DiscoverX cell-free binding; 1000 nM: 100%
TAOK2 (Homo sapiens, UniProt Q9UL54); binding, competition with immobilised ligand; 1 µM: 96%
EPHA8 (Homo sapiens, UniProt P29322); binding, competition with immobilised ligand; 1 µM: 87%
CLK4 (Homo sapiens, UniProt Q9HAZ1); binding; 1 µM: 57%
CDKL3 (Homo sapiens, UniProt Q8IVW4); binding, competition with immobilised ligand; 1 µM: 91%
CAMK2B (Homo sapiens, UniProt Q13554); binding; 1 µM: 100%
MAPK12 (Homo sapiens, UniProt P53778); binding, competition with immobilised ligand; 1 µM: 70%
PRKAA1 (Homo sapiens, UniProt Q13131); binding, competition with immobilised ligand; 1 µM: 44%
MYLK (Homo sapiens, UniProt Q15746); binding; 1 µM: 6.9%
MAPKAPK5 (Homo sapiens, UniProt Q8IW41); binding; 1 µM: 90%
SIK2 (Homo sapiens, UniProt Q9H0K1); binding, competition with immobilised ligand; 1 µM: 9.9%

Series 2
Host: mouse
Matrix: microsomes or S9
Tested at: 2 µM
Time: 0.5 h
Measurement: remaining compound
Clc1cc(Cl)cc(-c2ccc(CNCc3ccncc3)o2)c1: 5.05%
CC(C)(CO)NCc1ccc(-c2cc(Cl)cc(Cl)c2)o1: 2.3%
CC1(COc2ccc(Cl)cc2)CC(n2cncn2)C(c2ccc(Cl)cc2)=NO1 (stereo not shown): 12.3%
Cc1ccc(CNS(=O)(=O)c2cc(-c3ccc(=O)[nH]n3)cc(C)c2C)cc1: 0.772%
Cc1ccc2c(c1)ncc1c(-c3ccccc3)nn(-c3cccc(C)c3C)c12: 80.1%
O=C(NCCc1ccccc1)N1Cc2c(sc3c2CCCC3)-n2cccc2C1c1cccs1 (stereo not shown): 6.69%
COc1cc2c(Br)c(O)c(Br)cc2cc1Cc1ccccc1: 75.4%
COc1ccc(C2(CNC(=O)C(F)(F)F)CCCCC2)cc1: 12.5%
Cc1cc(C(=O)N2CCOCC2)c2c(=O)n(Cc3ccccc3C)c(=O)n(-c3ccccc3)c2n1: 10.9%
CCn1nc(-c2nnc3n2CC(C)(C)CC3)c2ccccc2c1=O: 79.4%

Series 3
Target: Serine/threonine-protein kinase STK11 (STK11, Homo sapiens, UniProt Q15831)
Read-out: enzyme activity
Action: inhibitor
Tested at: 0.5 µM
Relative to: control
Measurement: remaining activity
Residues (Q15831 1-433): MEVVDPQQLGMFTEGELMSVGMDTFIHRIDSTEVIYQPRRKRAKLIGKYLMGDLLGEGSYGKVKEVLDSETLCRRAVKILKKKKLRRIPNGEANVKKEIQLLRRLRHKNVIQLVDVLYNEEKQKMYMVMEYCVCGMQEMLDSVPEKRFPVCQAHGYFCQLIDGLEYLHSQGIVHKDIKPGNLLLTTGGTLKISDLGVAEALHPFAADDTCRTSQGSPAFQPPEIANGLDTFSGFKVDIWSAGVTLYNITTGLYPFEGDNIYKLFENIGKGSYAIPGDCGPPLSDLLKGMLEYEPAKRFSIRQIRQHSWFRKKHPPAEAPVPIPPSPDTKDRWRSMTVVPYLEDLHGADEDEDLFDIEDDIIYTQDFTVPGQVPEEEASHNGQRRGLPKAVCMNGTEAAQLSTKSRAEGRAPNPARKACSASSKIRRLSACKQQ
c1ccc(-c2[nH]ncc2-c2ccnc3ccccc23)nc1: 82.6%
Cc1cc2ncc(-c3ccccc3)nc2cc1C: 94%
CN(C)C[C@H]1CCn2c(c(C3=C(c4cn(C)c5ccccc45)C(=O)NC3=O)c3ccccc32)C1: 91.9%
CCN(CC)CCNC(=O)c1c(C)[nH]c(/C=C2\C(=O)Nc3ccc(Cl)cc32)c1C: 80.7%
C[C@@H]1CCN(C(=O)CC#N)C[C@@H]1N(C)c1ncnc2[nH]ccc12: 104%
COc1cc2ncnc(Nc3ccc(O)c(Br)c3)c2cc1OC: 103%
Cc1nc2cc3nc(-c4cccs4)cnc3cc2n1C: 89.6%
COc1cc2c(cc1OC)-c1[nH]nc(Nc3cccc(F)c3)c1C2: 104%
N#Cc1c(NC(=O)c2cccc3ccccc23)sc2c1CCCC2: 96.1%
CCOc1nc(NC(=O)Cc2cc(OC)ccc2OC)cc(N)c1C#N: 96.4%
Nc1cccc(-c2cc3c(Oc4cccc(O)c4)ncnc3[nH]2)c1: 12.4%
CCN(CC)CCNC(=O)c1c(C)[nH]c(/C=C2\C(=O)Nc3ccc(F)cc32)c1C: 97.2%
CCN(CC)C(=O)c1ccc(Nc2nc(OCC3CCCCC3)c3[nH]cnc3n2)cc1: 85.2%
CN([C@@H](Cc1ccc(OS(=O)(=O)c2cccc3cnccc23)cc1)C(=O)N1CCN(c2ccccc2)CC1)S(=O)(=O)c1cccc2cnccc12: 99%
COc1cc2ncnc(Nc3cccc(Cl)c3)c2cc1OC: 96.8%
O=C1C(Cl)=C(N2C(=O)CCC2=O)C(=O)c2ccccc21: 99.8%
Ic1cccc(CSc2nnc(-c3ccncc3)o2)c1: 103%
O=C1c2ccccc2-c2n[nH]c3cccc1c23: 53.9%
N#C/C(=C\c1ccc(O)c(O)c1)C(=O)NCc1ccccc1: 97.4%
O=C(Nc1cccc(Nc2nccc(Nc3cccc(C(F)(F)F)c3)n2)c1)C1CC1: 82.8%
Cc1cn(-c2cc(NC(=O)c3ccc(C)c(Nc4nccc(-c5cccnc5)n4)c3)cc(C(F)(F)F)c2)cn1: 109%
O=C(NC(NC(=S)Nc1ccc(F)c([N+](=O)[O-])c1)C(Cl)(Cl)Cl)C(c1ccccc1)c1ccccc1 (stereo not shown): 94.2%
O=c1cc(-c2cccc3c2Sc2ccccc2S3)oc(N2CCOCC2)c1: 96.5%
Cn1nc2c3c(cccc31)C(=O)c1ccccc1-2: 87.7%

Series 4
Compound: COc1ccc2c(O[C@@H]3C[C@H]4C(=O)N[C@]5(C(=O)O)CC5/C=C\CCCCC[C@H](NC(=O)OC5CCCC5)C(=O)N4C3)cc(-c3csc(NC(=O)C(C)C)n3)nc2c1C (stereo partly shown)
Read-out: cell-free assay
Method: competition with immobilised ligand
Tested at: 1 µM
Measurement: remaining binding
SRMS (Homo sapiens, UniProt Q9H3Y6): 98%
PIK3CD (Homo sapiens, UniProt O00329): 100%
CLK4 (Homo sapiens, UniProt Q9HAZ1): 100%
AKT1 (Homo sapiens, UniProt P31749): 100%
MET (Homo sapiens, UniProt P08581): 99%
NTRK2 (Homo sapiens, UniProt Q16620): 94%
MAP3K14 (Homo sapiens, UniProt Q99558): 89%
SRPK2 (Homo sapiens, UniProt P78362): 100%
BMX (Homo sapiens, UniProt P51813): 57%
PAK2 (Homo sapiens, UniProt Q13177): 91%
STK3 (Homo sapiens, UniProt Q13188): 86%
KIT (Homo sapiens, UniProt P10721, L576P): 90%
CLK1 (Homo sapiens, UniProt P49759): 98%
CSNK1A1 (Homo sapiens, UniProt P48729): 68%
Tyrosine-protein kinase ABL1, phosphorylated (ABL1, Homo sapiens, UniProt P00519, M351T): 90%

Repeated from above (series 3):
O=C1C(Cl)=C(N2C(=O)CCC2=O)C(=O)c2ccccc21: 99.8%
COc1cc2ncnc(Nc3cccc(Cl)c3)c2cc1OC: 96.8%
CCOc1nc(NC(=O)Cc2cc(OC)ccc2OC)cc(N)c1C#N: 96.4%
Cc1nc2cc3nc(-c4cccs4)cnc3cc2n1C: 89.6%
Ic1cccc(CSc2nnc(-c3ccncc3)o2)c1: 103%
N#C/C(=C\c1ccc(O)c(O)c1)C(=O)NCc1ccccc1: 97.4%
Nc1cccc(-c2cc3c(Oc4cccc(O)c4)ncnc3[nH]2)c1: 12.4%
O=c1cc(-c2cccc3c2Sc2ccccc2S3)oc(N2CCOCC2)c1: 96.5%
CCN(CC)CCNC(=O)c1c(C)[nH]c(/C=C2\C(=O)Nc3ccc(F)cc32)c1C: 97.2%
N#Cc1c(NC(=O)c2cccc3ccccc23)sc2c1CCCC2: 96.1%
